# Results pooled from the literature.
# Parts stem from different laboratories: compare values within a part only. Values joined by “and” are separate records of one study, mostly repeats; a detail may differ.

# Sample 1 — cell line: mouse MPNST tumor cells; method: high-content nuclear imaging; measured: cell number; concentration: 10 µM; time: 12 h; notes: mean of 2 replicates; relative to: plate mean; direction: higher = more cells
Structure (SMILES),nuclei count [z-score]
CCCC(C)(COC(N)=O)COC(=O)NC(C)C (stereo not drawn),1.11
Cc1sc2c(c1C)C(c1ccc(Cl)cc1)=NC(CC(=O)OC(C)(C)C)c1nnc(C)n1-2 (stereo not drawn),-2.73
O=C(Nc1ccccc1)C(=O)c1cn(Cc2ccccc2)c2ccccc12,-0.898

# Sample 2 — read-out: enzyme activity; mode: inhibitor; method: radiometric; concentration: 0.5 µM
# Target: Serine/threonine-protein kinase 33 (STK33, Homo sapiens, UniProt Q9BYT3)
# Sequence of UniProt Q9BYT3 (whole entry, looked up): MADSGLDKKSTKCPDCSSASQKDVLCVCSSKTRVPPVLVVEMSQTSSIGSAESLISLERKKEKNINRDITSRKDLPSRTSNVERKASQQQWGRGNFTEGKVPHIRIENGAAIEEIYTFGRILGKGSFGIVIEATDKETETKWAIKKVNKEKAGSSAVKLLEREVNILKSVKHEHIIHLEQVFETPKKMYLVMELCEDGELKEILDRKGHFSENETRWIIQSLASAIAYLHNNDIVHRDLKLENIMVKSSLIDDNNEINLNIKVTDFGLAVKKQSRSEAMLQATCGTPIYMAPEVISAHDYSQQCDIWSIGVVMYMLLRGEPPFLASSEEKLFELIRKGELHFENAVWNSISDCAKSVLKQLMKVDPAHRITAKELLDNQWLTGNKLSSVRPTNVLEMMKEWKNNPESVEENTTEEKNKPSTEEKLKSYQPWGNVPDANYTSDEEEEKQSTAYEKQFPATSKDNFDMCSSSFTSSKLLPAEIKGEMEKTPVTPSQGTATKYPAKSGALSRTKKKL
Compound,remaining activity
c1ccc2c(-c3ccncc3)c[nH]c2c1,97.3%
CCCCc1c(-c2ccc(OC)cc2)[nH]c2nccnc12,84.6%
Cc1cc(Nc2cc(N3CCN(C)CC3)nc(Sc3ccc(NC(=O)C4CC4)cc3)n2)[nH]n1,90.1%
O=C1NC(=O)c2c1c1c3ccccc3[nH]c1c1[nH]c3cc(Br)ccc3c21,71.9%

# Sample 3
# Compound: CC(C)S(=O)(=O)c1ccc2nccc(Nc3ccc4sc(C5CCCC5)nc4c3)c2c1.Cl
cell line,test,setting,viability
L929 RIPK3 knockout,,1.563 µM,102% and 101% and 106% and 96%
L929 RIPK3 knockout,,0.391 µM,97.7% and 103% and 113% and 106% and 107%
L929 RIPK3 knockout,,12.5 µM,103% and 104% and 98.9%
L929,CCK-8,1.563 µM,98.9% and 97.6% and 104% and 100%
L929 RIPK3 knockout,,25 µM,84.4% and 90.3% and 93% and 88.8% and 102%
L929 RIPK3 knockout,,"25 µM, together with: zVAD",93% and 94.3% and 92.7%
L929,CCK-8,6.25 µM,107% and 110% and 106%
L929 RIPK3 knockout,,"0.391 µM, together with: zVAD",101% and 103% and 110% and 109% and 104% and 108%
L929,CCK-8,"25 µM, together with: zVAD",89% and 89.7% and 88.5%
L929,CCK-8,"6.25 µM, together with: zVAD",102% and 104% and 103% and 108%

# Sample 4 — mode: degrader; method: HiBiT; cells: HEK293; concentration: 370.37 nM
# Target: CRBN/Zinc finger protein Helios (Homo sapiens, UniProt Q96SW2+Q9UKS7)
# Sequence of UniProt Q96SW2 (whole entry, looked up): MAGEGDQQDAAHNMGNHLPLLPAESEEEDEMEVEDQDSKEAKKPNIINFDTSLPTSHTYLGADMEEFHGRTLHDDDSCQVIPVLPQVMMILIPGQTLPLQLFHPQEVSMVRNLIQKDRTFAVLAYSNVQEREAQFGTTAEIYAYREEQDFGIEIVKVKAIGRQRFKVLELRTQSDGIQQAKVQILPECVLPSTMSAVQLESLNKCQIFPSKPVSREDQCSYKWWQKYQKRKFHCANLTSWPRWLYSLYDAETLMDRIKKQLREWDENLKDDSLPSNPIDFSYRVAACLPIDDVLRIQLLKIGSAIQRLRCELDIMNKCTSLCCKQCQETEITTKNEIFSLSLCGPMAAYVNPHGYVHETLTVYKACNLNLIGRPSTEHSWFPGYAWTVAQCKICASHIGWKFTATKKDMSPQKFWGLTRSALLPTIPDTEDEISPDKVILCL
# Sequence of UniProt Q9UKS7 (whole entry, looked up): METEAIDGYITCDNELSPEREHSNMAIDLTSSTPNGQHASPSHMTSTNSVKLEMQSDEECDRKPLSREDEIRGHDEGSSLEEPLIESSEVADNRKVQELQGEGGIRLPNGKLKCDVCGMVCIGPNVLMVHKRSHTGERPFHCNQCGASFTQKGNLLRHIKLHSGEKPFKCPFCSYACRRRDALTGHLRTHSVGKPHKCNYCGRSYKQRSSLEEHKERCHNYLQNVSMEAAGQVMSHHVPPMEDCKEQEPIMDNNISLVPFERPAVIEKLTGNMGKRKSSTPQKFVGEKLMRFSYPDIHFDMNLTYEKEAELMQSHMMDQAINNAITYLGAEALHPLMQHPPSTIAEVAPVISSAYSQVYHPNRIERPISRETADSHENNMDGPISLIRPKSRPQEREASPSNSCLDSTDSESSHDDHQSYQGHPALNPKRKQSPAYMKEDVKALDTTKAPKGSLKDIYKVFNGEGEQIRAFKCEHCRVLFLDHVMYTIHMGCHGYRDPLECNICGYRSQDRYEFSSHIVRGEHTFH
Compound,protein remaining
O=C1CCC(N2Cc3c(ccc4c3OCC43CCN(Cc4ccccc4)C3)C2=O)C(=O)N1 (stereo not drawn),73.7%
O=C1CCC(N2Cc3c(ccc4c3OCC43CCN(Cc4ccccc4)CC3(F)F)C2=O)C(=O)N1 (stereo not drawn),46.7%
O=C1CCC(N2Cc3c(ccc4c3OCC43CCN(CC4CCCCC4)CC3)C2=O)C(=O)N1 (stereo not drawn),41.6%
O=C1CCC(N2Cc3c(ccc4c3OCC43CCCN(Cc4ccccc4)CC3)C2=O)C(=O)N1 (stereo not drawn),92.9%
